# Results collected from several papers.
# Compare with care: the assays were run in different laboratories. Several values in a cell are separate wells, animals, samples, runs or records. ± gives the spread as reported.
SMILES,assay,test system,setting,measurement,value
Cc1cccc(Cn2nc(C3CC3)c3c(NC(=O)c4cnc5cc(OCCN6CCN(C)CC6)ccn45)cccc32)n1,measured: Dehydration,human pancreatic ductal adenocarcinoma,"oral, dose not given, all-causality",adverse events incidence,18.5%
CCN1[C@@H](C(=O)NC23CCC(C(=O)O)(CC2)CC3)[C@H](c2cccc(Cl)c2F)[C@]2(C(=O)Nc3cc(Cl)ccc32)C12CCCCC2,,patients with advanced solid tumours,150 mg,oral mucositis incidence,0%
COc1cc2c(Oc3ccc4[nH]c(C)cc4c3F)ccnc2cc1OCC1(N)CC1,,paediatric recurrent refractory sarcoma,"concentration not given, whole group",grade 1 or 2 Vomiting,26.5%
Cn1cncc1-c1c(F)cncc1NC(=O)c1c(N)nn2cc(F)cnc12,,human patients,"oral, 180 mg once daily",grade ≥3 anaemia incidence,73%
CCCCCCCCCCCCCCCC(=O)N[C@@H](CCC(=O)NCCCC[C@H](NC(=O)[C@H](CC(=O)O)NC(=O)[C@H](CO)NC(=O)[C@@H](NC(=O)[C@H](Cc1ccccc1)NC(=O)[C@@H](NC(=O)CNC(=O)[C@H](CCC(N)=O)NC(=O)[C@H](CO)NC(=O)[C@@H](N)Cc1c[nH]cn1)[C@@H](C)O)[C@@H](C)O)C(=O)N[C@@H](CO)C(=O)N[C@@H](CCC(=O)O)C(=O)N[C@@H](Cc1ccc(O)cc1)C(=O)N[C@@H](CC(C)C)C(=O)N[C@@H](CC(=O)O)C(=O)N[C@@H](CO)C(=O)N[C@@H](CCC(=O)O)C(=O)N[C@@H](CCCNC(=N)N)C(=O)N[C@@H](C)C(=O)N[C@@H](CCCNC(=N)N)C(=O)N[C@@H](CC(=O)O)C(=O)N[C@@H](Cc1ccccc1)C(=O)N[C@H](C(=O)N[C@@H](C)C(=O)N[C@@H](Cc1c[nH]c2ccccc12)C(=O)N[C@@H](CC(C)C)C(=O)N[C@@H](CCC(=O)O)C(=O)N[C@@H](C)C(=O)NCC(=O)NCC(=O)O)C(C)C)C(=O)O,measured: Headache,humans CrCl at least 90 mL/min,"subcutaneous, 100 µg single dose",treatment-related adverse events,25%
CCCCCOc1ccc(-c2ccc(-c3ccc(C(=O)N[C@H]4C[C@@H](O)[C@@H](OCC[N+](C)(C)C)NC(=O)[C@@H]5[C@@H](O)[C@@H](C)CN5C(=O)[C@H]([C@@H](C)O)NC(=O)[C@H]([C@H](O)[C@@H](O)c5ccc(O)cc5)NC(=O)[C@@H]5C[C@@H](O)CN5C(=O)[C@H]([C@@H](C)O)NC4=O)cc3)cc2)cc1,,"adult patients in ICU, plasma","intravenous, 400 mg loading, after first dose, geometric mean",AUC(0-168 h),700 µg·h/mL
C[C@]1(O)C[C@@](N)(c2ccc(-c3nc4n(c3-c3ccccc3)COc3ccncc3-4)cc2)C1,,"human, advanced or metastatic solid tumours","24 mg intermittent, phase I dose escalation",patients with Fatigue TEAE,50%
Cn1c(-c2ccc(C(N)=O)cc2F)nnc1C(C)(C)Oc1c(F)cc(Cl)cc1F,,human,"oral, 30 mg, single ascending dose",medical device site reaction TEAE,0%
CC(C)C[C@H](NC(=O)[C@H](CCCCN)NC(=O)OCC1c2ccccc2-c2ccccc21)C(=O)N[C@H](C(=O)N[C@@H](Cc1ccccc1)C(=O)N[C@@H](Cc1ccccc1)C(=O)N[C@@H](CCCCN)C(=O)NCC(=O)N[C@@H](Cc1ccccc1)C(=O)N[C@@H](C)C(=O)N[C@@H](Cc1c[nH]c2ccccc12)C(=O)N[C@@H](CC(N)=O)C(=O)N[C@H](C(=O)N[C@H]1CSSC[C@@H](C(=O)N[C@@H](Cc2c[nH]cn2)C(=O)N[C@@H](CCCNC(=N)N)C(=O)N[C@@H](CCCNC(=N)N)C(=O)N[C@@H](C)C(=O)N[C@@H](CC(N)=O)C(N)=O)NC(=O)[C@H](C(C)C)NC(=O)[C@H](CCCNC(=N)N)NC(=O)[C@H](C(C)C)NC(=O)CNC(=O)[C@H](CC(N)=O)NC(=O)[C@H](CCCNC(=N)N)NC(=O)[C@H](Cc2ccc(O)cc2)NC(=O)[C@H](C(C)C)NC1=O)C(C)C)C(C)C,HPLC,mouse kidney homogenate,"2560 µM, 6.00 h, 37 °C, 50 mg/mL tissue",remaining peptide,59.5% and 60.4% and 64%
O=C(C1CCCCC1)N1CC(=O)N2CCc3ccccc3[C@@H]2C1,,"NMRI mouse, female, S. mansoni-infected, plasma","oral, 400 mg/kg, dosed as racemate",Cmax of (R)-enantiomer,6.3 µM
O=C(c1cc2cccnc2n1-c1ccc(Cl)c(Cl)c1)N1CC(F)(F)C1,,mouse,"intravenous, 5 mg/kg",mean residence time,1.57 h
COc1ncccc1-c1cnn2ccc(N3CCN(C(=O)OC(C)C)CC3)nc12,,"mouse nerve ligation model, plasma","oral, 3 mg/kg, 120 min after last dose, repeat dosing day 1",drug concentration,510 nM
N=C(CC(O)c1cc2c(F)cc(F)cc2c2cc(C(F)(F)F)ccc12)Nc1ccc(Br)cc1 (stereo not shown),,human blood,"50 ng/mL, 30 min",blood-to-plasma ratio,1 ± 0.08
COc1ccc(C[C@@H]2NC(=O)[C@H]([C@@H](C)O)NC(=O)[C@@H]3[C@@H]4CCN3C(=O)[C@@H]3Cc5cn(c6ccc(F)cc56)CCCCCCN(Cc5ccc(cc5)CCNC(=O)[C@]5(C)CCCN5C2=O)C(=O)CCC(=O)N[C@@H](C)C(=O)N[C@H](CNC(=O)CCCCC[N+](C)(C)C)C(=O)N[C@@H](Cc2cccc(c2)CNC(=O)CO4)C(=O)N3)cc1,measured: Diarrhea,humans,"concentration not given, Study-001",participants with adverse event,7.8%
O=C(Nc1ccccc1)C1CCN(C(=O)Oc2cccnc2)CC1,,healthy women,"oral, 100 mg, 9 days",adverse event Nausea,23.1%
CC(C)n1c(C2CCNCC2)nc2c([N+](=O)[O-])c(Br)c(Br)cc21,measured: Anemia,AML patients,125 mg,adverse events any grade,31%
Nc1nc2cc(-c3ccc4ncc(C(=O)N5CCOCC5)n4c3)ccc2o1,measured: Nausea,advanced solid tumour patients,"dose not given, all grades, all doses",patients with adverse event,61%
CO[C@H]1C[C@@H]2CC[C@@H](C)[C@@](O)(O2)C(=O)C(=O)N2CCCC[C@H]2C(=O)O[C@H]([C@H](C)C[C@@H]2CC[C@@H](OC(=O)NCCOCCOCCOCCOCCOCCOCCOCCOCCC(=O)N3CCc4cc(Cn5nc(-c6ccc7oc(N)nc7c6)c6c(N)ncnc65)ccc4C3)[C@H](OC)C2)C[C@@H](O)[C@H](C)/C=C(\C)[C@@H](O)[C@@H](OC)C(=O)[C@H](C)C[C@H](C)/C=C/C=C/C=C/1C,"phase 1 dose escalation, measured: neutropenia",advanced solid tumour patients,"intravenous, 6 mg weekly, grade ≥3",dose-reducing adverse events,0%
CN1CC[C@@H](c2c(O)cc(O)c3c(=O)cc(-c4ccc(C(F)(F)F)cc4Cl)oc23)[C@@H]1CO,measured: Neutropenia,AML,"oral, 200 mg, intermittent dosing",patients with adverse event,20%
CCc1ccc(CC/C=C/c2ccc3c(c2)C(=O)CC3)cc1,,"Sprague-Dawley rat, female","oral, 30 mg/kg/day, 14 days",Globulin,17.6 g/L
C[C@]1(CO)Cc2ncn(-c3ccc(C#N)c(Cl)c3)c2C(=O)O1,,Japanese subjects,80 mg single dose,drug-related Headache incidence,0%
CCN1CCN(Cc2ccc(Nc3ncc(F)c(-c4cc(F)c5nc6n(c5c4)[C@H](C)CCC6)n3)nc2)CC1,,advanced solid tumour patients,"dose not given, Phase Ia monotherapy","Hypophosphatemia incidence, any grade",25%
COc1ccc2nc3cc(Cl)ccc3c(Nc3cc(CN4CCCC4)c(O)c(CN4CCCC4)c3)c2n1,,"mouse, blood","oral, 57 mg/kg",blood pH,7.58
C[C@H]1C[C@@H](N2C(=N)N[C@](C)(c3cccc(NC(=O)c4cccc(C#N)c4)c3Cl)CC2=O)CCO1,,rat,"1000 mg/kg, every other day",phosphorus change,-14%
O[C@H]1CCCN[C@@H]1CCCn1cnc2c(Cl)c(Cl)ccc21,,"healthy CYP2D6 EM and UM, plasma","oral, 150 mg multiple doses",AUCtau,887 ng·h/mL

# For quick reference, copied from above:
SMILES,assay,test system,setting,measurement,value
CCN1[C@@H](C(=O)NC23CCC(C(=O)O)(CC2)CC3)[C@H](c2cccc(Cl)c2F)[C@]2(C(=O)Nc3cc(Cl)ccc32)C12CCCCC2,,patients with advanced solid tumours,150 mg,oral mucositis incidence,0%
COc1cc2c(Oc3ccc4[nH]c(C)cc4c3F)ccnc2cc1OCC1(N)CC1,,paediatric recurrent refractory sarcoma,"concentration not given, whole group",grade 1 or 2 Vomiting,26.5%
Cn1cncc1-c1c(F)cncc1NC(=O)c1c(N)nn2cc(F)cnc12,,human patients,"oral, 180 mg once daily",grade ≥3 anaemia incidence,73%
CCCCCCCCCCCCCCCC(=O)N[C@@H](CCC(=O)NCCCC[C@H](NC(=O)[C@H](CC(=O)O)NC(=O)[C@H](CO)NC(=O)[C@@H](NC(=O)[C@H](Cc1ccccc1)NC(=O)[C@@H](NC(=O)CNC(=O)[C@H](CCC(N)=O)NC(=O)[C@H](CO)NC(=O)[C@@H](N)Cc1c[nH]cn1)[C@@H](C)O)[C@@H](C)O)C(=O)N[C@@H](CO)C(=O)N[C@@H](CCC(=O)O)C(=O)N[C@@H](Cc1ccc(O)cc1)C(=O)N[C@@H](CC(C)C)C(=O)N[C@@H](CC(=O)O)C(=O)N[C@@H](CO)C(=O)N[C@@H](CCC(=O)O)C(=O)N[C@@H](CCCNC(=N)N)C(=O)N[C@@H](C)C(=O)N[C@@H](CCCNC(=N)N)C(=O)N[C@@H](CC(=O)O)C(=O)N[C@@H](Cc1ccccc1)C(=O)N[C@H](C(=O)N[C@@H](C)C(=O)N[C@@H](Cc1c[nH]c2ccccc12)C(=O)N[C@@H](CC(C)C)C(=O)N[C@@H](CCC(=O)O)C(=O)N[C@@H](C)C(=O)NCC(=O)NCC(=O)O)C(C)C)C(=O)O,measured: Headache,humans CrCl at least 90 mL/min,"subcutaneous, 100 µg single dose",treatment-related adverse events,25%
